Assay results from different studies.
Numbered parts are unrelated; each lists some results of a single study.

Series 1 — technique: protein binding microarray; molecule type: double-stranded DNA, one strand shown; medium: in vitro; tested at: not given; relative to: not given; direction: higher = stronger binding; quantity: E-score
Target: Histone acetyltransferase KAT6A, both winged helices, GST fusion (KAT6A, Homo sapiens, UniProt Q92794, residues 1-181)
Notes: 8-mer, flanks averaged, mean of 2 arrays, mostly near background
Construct (chain): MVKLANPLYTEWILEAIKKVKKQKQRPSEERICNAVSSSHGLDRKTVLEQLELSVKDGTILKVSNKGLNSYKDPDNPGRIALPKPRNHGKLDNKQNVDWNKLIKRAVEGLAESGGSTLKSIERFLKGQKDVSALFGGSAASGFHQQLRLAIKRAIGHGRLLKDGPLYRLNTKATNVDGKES
Oligonucleotide = CTTCTCAC; value = -0.104
Oligonucleotide = ATTCAAGG; value = -0.181
Oligonucleotide = GAGAACGC; value = 0.0577
Oligonucleotide = CCGATACC; value = 0.139
Oligonucleotide = CCCCGCCC; value = 0.186
Oligonucleotide = CGACTGCG; value = 0.191

Series 2 — technique: RNA Bind-n-Seq; molecule type: RNA; medium: in vitro; tested at: 365 nM; relative to: no-protein control; direction: higher = stronger binding; quantity: RBNS enrichment (R)
Target: RNA binding protein fox-1 homolog 2, RRM domain, GST-SBP tag (RBFOX2, Homo sapiens, UniProt O43251-10, residues 100-194)
Notes: natural RNA segment, single round, ends assumed
Target sequence (chain): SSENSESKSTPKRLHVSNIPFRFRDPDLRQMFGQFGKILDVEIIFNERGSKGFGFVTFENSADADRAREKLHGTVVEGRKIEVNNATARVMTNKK
Oligonucleotide = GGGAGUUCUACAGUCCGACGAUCCUUUAGACUAUAACAUUUGUUGUAAUAAUUGCUAGGUUGAAGUUCAACAUGUAAAAAAAGGGGGCAUGGAUUUACAUUGCAAAAGGUGUCCACAGUGUAUUAGUGACAUUUGGAAUUCUCGGGUGCCAA; value = 0.552
Oligonucleotide = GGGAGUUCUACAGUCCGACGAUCAAGGCUUGUGAUUUGACCUGAGACAUUUGUUUCAGGUAAUCGUGUAGAAUGAAGUAUCUUAGUUUAAAGGGUAAGAGAGAAGUUGUUUCUGGUUUUUCCUUGCCCCUGUGUGGAAUUCUCGGGUGCCAA; value = 0.406
Oligonucleotide = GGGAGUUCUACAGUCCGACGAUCCACUGUUAUCUUGCCCUGUGUCUCAAUCCUGGUUGUCUAAGUUGGGACACCUGAGUCUCUUCCUCUUGUUCCUUCCACUAUGAGGCUCUGAGCCUCUCUGUGCCUUGGGCUGGAAUUCUCGGGUGCCAA; value = 0.307
Oligonucleotide = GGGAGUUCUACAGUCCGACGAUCAUUUAAGACAUAGCCAUGGAGCCCACAUGUUUAUGGAAUAGUCUACCCUUUGCCUGCAGGUCAGUUGUAAUAAAUCUAGGUUGUGAUGAUGGUCUUGUAAUCUGAUUUUCUGGAAUUCUCGGGUGCCAA; value = 2.4
Oligonucleotide = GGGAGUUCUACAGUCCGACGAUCCUUCCCAUCUUCUAUGCUUAUGUCCCACUGUGCCUGCUCCCCCAUCCUCUUUCUUGUAGCCUUUUGACUCAGUGGAAUCGAAGAUACAAUUUUCCUUAGACUACCUAGUGUGGAAUUCUCGGGUGCCAA; value = 0.967
Oligonucleotide = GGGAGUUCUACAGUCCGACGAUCUGGAUAUUUAUCUGCAUAUGCAAAUUAAAAUAAUUAGAAACUUUCUACCUAGUACGUCAUGUUGUACUAGGUACAUGAUGCUGGUCAGCCAUCCUUAAUCCAAAAUUUUGUGGAAUUCUCGGGUGCCAA; value = 0.383

Series 3 — technique: universal PBM; molecule type: double-stranded DNA, one strand shown; medium: in vitro; tested at: not given; direction: higher = stronger binding; quantity: E-score
Target: Sal-like protein 4, full length isoform B (SALL4, Homo sapiens, UniProt Q9UJQ4-2, residues 1-616)
Notes: 8-mer, flanks averaged, mean of replicates
Target sequence (chain): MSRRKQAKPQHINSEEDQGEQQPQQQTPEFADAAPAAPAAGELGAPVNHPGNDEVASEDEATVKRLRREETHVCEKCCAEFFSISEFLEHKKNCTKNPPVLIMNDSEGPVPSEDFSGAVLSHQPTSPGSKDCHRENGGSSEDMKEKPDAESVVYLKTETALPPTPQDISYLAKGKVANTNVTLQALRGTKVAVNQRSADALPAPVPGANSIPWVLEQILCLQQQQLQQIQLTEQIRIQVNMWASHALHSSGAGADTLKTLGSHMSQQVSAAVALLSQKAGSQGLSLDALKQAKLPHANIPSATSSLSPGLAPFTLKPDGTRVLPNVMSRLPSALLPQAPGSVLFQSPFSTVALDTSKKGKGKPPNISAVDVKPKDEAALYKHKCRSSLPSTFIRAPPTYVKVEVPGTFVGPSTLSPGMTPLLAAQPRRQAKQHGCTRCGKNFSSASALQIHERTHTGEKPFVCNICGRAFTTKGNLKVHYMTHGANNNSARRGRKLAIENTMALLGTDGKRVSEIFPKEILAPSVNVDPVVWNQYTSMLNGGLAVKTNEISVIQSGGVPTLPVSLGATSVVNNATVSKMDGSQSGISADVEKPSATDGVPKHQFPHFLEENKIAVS
Oligonucleotide = CAATGTAG; value = 0.0084
Oligonucleotide = AATGGTTA; value = 0.198
Oligonucleotide = AGCTAGGA; value = -0.161
Oligonucleotide = CTCGGATA; value = 0.0103
Oligonucleotide = CTACGGAA; value = 0.106

Mixed results
Substance = PhoQ, residues 284 288 289 292 302 303 AGGCYF; target = PhoP, residues 12 14 15 18 19 AWHSL (Escherichia coli, UniProt P23836); test = Sort-seq, refers to: YFP reporter; test system = E. coli; conditions = PhoQ-PhoP variant library, together with: 10 µM Mg2+; how to read = relative to: high Mg2+ state, higher = stronger signaling; quantity = fold induction; value = 4.18

Excerpt of the above (series 3):
Oligonucleotide = AGCTAGGA; value = -0.161
Oligonucleotide = AATGGTTA; value = 0.198
